Measurements of several laboratories.
Each line is one published result; not all experiments were run side by side. ± gives the spread as reported.
U2AF2: U2AF2 148-342 (Homo sapiens, UniProt P26368)
Chain of UniProt P26368 (whole entry, looked up): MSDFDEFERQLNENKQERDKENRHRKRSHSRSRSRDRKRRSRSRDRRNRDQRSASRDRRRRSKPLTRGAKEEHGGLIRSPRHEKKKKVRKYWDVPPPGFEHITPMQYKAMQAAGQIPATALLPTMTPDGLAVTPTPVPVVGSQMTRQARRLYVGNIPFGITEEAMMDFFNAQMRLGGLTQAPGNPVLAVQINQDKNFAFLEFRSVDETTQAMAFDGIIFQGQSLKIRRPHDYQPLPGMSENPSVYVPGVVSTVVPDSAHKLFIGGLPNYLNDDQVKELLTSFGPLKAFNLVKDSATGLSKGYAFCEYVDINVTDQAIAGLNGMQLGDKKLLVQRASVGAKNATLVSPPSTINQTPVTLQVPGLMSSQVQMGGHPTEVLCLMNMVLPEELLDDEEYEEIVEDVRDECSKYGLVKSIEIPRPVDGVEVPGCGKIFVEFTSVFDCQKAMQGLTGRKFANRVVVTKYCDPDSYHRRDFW

Ac-LRKLRKRLLRDWLKAFYDKVAEKLKEAF-NH2 (N-acetyl, C-amide) — cholesterol efflux (THP-1 macrophages; peptide; 10 µg/mL, added: [3H]-cholesterol loading; reference: control): 10%
GTDPIPLGM — GFP-positive cells (Jurkat expressing engineered TCR; NFAT-eGFP reporter, fluorescence microscopy; peptide; concentration not given, HLA-A*01:01 on EL4 cells): 0.416%
human ME2 Q101T — Hill coefficient (enzyme activity, NADH absorbance; without fumarate, added: L-malate varied): 1.75 ± 0.06
verteporfin — inhibition (BT-12; cell viability, MTT; 10 µM, 72 h): 92.7%
MTVCNASQRQAHAQATAVSL — selectivity ratio (H2073 lung adenocarcinoma; phage binding output/input; peptide; reference: control phage): 0.74 ± 0.33
RIDPIPLGM — GFP-positive cells (Jurkat expressing engineered TCR; NFAT-eGFP reporter, fluorescence microscopy; peptide; concentration not given, HLA-A*01:01 on EL4 cells): 0.39%
colistin — MIC (Enterobacter cloacae; clinical isolate RKI 466/13): ≤ 0.5 µg/mL
POTE ankyrin domain I (human) — log2 fold change (CYB5R4 knockout human cells; PP6 interaction, 3xFLAG-PP6C IP-MS; concentration not given; reference: CYB5R4 KO over parental): 0.1
ETDPIGFEF — GFP-positive cells (Jurkat expressing engineered TCR; NFAT-eGFP reporter, fluorescence microscopy; peptide; concentration not given, HLA-A*01:01 on EL4 cells): 7.65%
human WNK1 — log2 fold change (CYB5R4 knockout human cells; PP4 interaction, 3xFLAG-PP4C IP-MS; concentration not given; reference: CYB5R4 KO over parental): 0.75
adrenomedullin — retention time (RP-HPLC; HALO Phenyl-hexyl column; 25 µM, formic acid/methanol, 10 min gradient): 8.58 min
human apolipoprotein D — log2 fold change (CYB5R4 knockout human cells; PP4 interaction, 3xFLAG-PP4C IP-MS; concentration not given; reference: CYB5R4 KO over parental): 3.13
GUUAGUUUA (ssRNA) — Kd (U2AF2; sequencing of bound RNA; RNA; motif only): 10.6 µM
epoetin alfa — mRNA level (UT7/EPO; RT-qPCR, item: NFKBIZ; concentration not given, 90 min, normalized to HPRT1; reference: vehicle): 2.7 fold
human RNA helicase DHX34 — log2 fold change (CYB5R4 knockout human cells; PP4 interaction, 3xFLAG-PP4C IP-MS; concentration not given; reference: CYB5R4 KO over parental): -0.16
PFVYLIRFHRFHRFHGGGSSSQLSRP — transfection efficiency (HEK293T; plasmid delivery, item: RFP; peptide; concentration not given, 48 h): ~60%
ELDPIPLGF — GFP-positive cells (Jurkat NFAT-eGFP expressing engineered TCR; NFAT reporter gene; peptide; concentration not given, HLA-A*01:01 presentation): 1.82%
UUUCUUUUU (ssRNA) — Kd (U2AF2; sequencing of bound RNA; RNA; motif only): 0.82 µM
Peginesatide — phosphorylation level (UT7/EPO; tyrosine phosphorylation, LC-MS/MS phosphoproteomics, trypsin, item: SHC1 tyrosine 349; 10 nM, 15 min, added: 10 U/mL EPO; reference: vehicle): 10.3 fold
human PABP1 — log2 fold change (CYB5R4 knockout human cells; PP4 interaction, 3xFLAG-PP4C IP-MS; concentration not given; reference: CYB5R4 KO over parental): 0.11
ELDLIPLTY — GFP-positive cells (Jurkat expressing engineered TCR; NFAT-eGFP reporter, fluorescence microscopy; peptide; concentration not given, HLA-A*01:01 on EL4 cells): 0.524%
